Measured values of several laboratories.
Compare with care: the assays were run in different laboratories.
Target: Receptor tyrosine-protein kinase erbB-3 (ERBB3, Homo sapiens, UniProt P21860)

SMILES | test | conditions | scale | remaining binding [%]
CNC(=O)C1CCN(c2cc(C)c(F)cc2NC(=O)c2ccc(-c3cc(O)ccc3C)c(C)c2)CC1 | binding, competition with immobilised ligand | 1 µM | – | 63
Cc1ccc(-c2c(/C=C(\C#N)C(=O)NC(C)C)n(CCCO)c3ncnc(N)c23)cc1 | cell-free assay, competition with immobilised ligand | 1 µM | – | 88
C=CC(=O)N1CCCC(n2c(=O)c3ncccc3n(Cc3ccc(Oc4ccccc4)cc3)c2=O)C1 (centres unmarked) | cell-free assay, competition with immobilised ligand | 1 µM | – | 69
CC(C)=CC1OC(C)(C)C2C=C3C(=O)C(Cl)=CC(O)C3C3C(O)C4OC4C(=O)C132 (centres unmarked) | cell-free assay, competition with immobilised ligand | 10 µM | – | 94
COc1cc(Nc2nccc(-c3cnn4nc(OC)ccc34)n2)cc(C(F)(F)F)c1 | binding, competition with immobilised ligand | 1 µM | – | 95
COc1c(Cl)cccc1Nc1c(-c2ccncc2C#C[C@@]2(C)CCCN2C(=O)/C=C/CN(C)C)[nH]c2c1C(=O)NCC2 | binding, competition with immobilised ligand | 3 µM | – | 65
C=CC(=O)N1CCc2ccc(-n3c(=O)ccc4cnc5ccc(-c6cnn(C)c6)cc5c43)cc21 | KINOMEscan | 1 µM | relative to: DMSO control | 83
CNC1C[S+]2CC[S+]3CC[S+](C1)[Ru-4]321([N]=C=S)[n]2c3ccc(OC)cc3c3c4c(c5cc(F)c[n+]1c5c32)C(=O)NC4=O (centres unmarked) | KinomeScan | 0.1 µM | relative to: untreated | 100
CCN1CCN(Cc2ccc(C(=O)Nc3ccc(C)c(NCc4cnc5[nH]ccc5c4OC)c3)cc2C(F)(F)F)CC1 | binding, competition with immobilised ligand | 1 µM | – | 63
Cc1cnc2nc1Nc1cccc(c1)COC/C=C/COCc1cc(ccc1OCCN1CCOCC1)N2 | binding | 0.1 µM | – | 99
Nc1ncc2c(n1)-c1c([nH]c3ccc(C4=CCOCC4)cc13)CCC2 | binding, competition with immobilised ligand | 1 µM | – | 89

A few entries again:
SMILES | test | conditions | scale | remaining binding [%]
COc1c(Cl)cccc1Nc1c(-c2ccncc2C#C[C@@]2(C)CCCN2C(=O)/C=C/CN(C)C)[nH]c2c1C(=O)NCC2 | binding, competition with immobilised ligand | 3 µM | – | 65
